Results of several laboratories.
Protocols differ between the studies behind these lines. ± gives the spread as reported.
MC1R: Melanocyte-stimulating hormone receptor (MC1R, Homo sapiens, UniProt Q01726)
Mannan-binding lectin serine protease 2: Mannan-binding lectin serine protease 2 (Homo sapiens, UniProt O00187)
Oprk1: Kappa-type opioid receptor (Oprk1, Rattus norvegicus, UniProt P34975)
Sigmar1: Sigma non-opioid intracellular receptor 1 (Sigmar1, Rattus norvegicus, UniProt Q9R0C9)
NPY1R: Neuropeptide Y receptor type 1 (NPY1R, Homo sapiens, UniProt P25929)
SLC10A2: Ileal sodium/bile acid cotransporter (SLC10A2, Homo sapiens, UniProt Q12908)

| Structure (SMILES) | target | assay | system | setting | Ki |
| --- | --- | --- | --- | --- | --- |
| CC(Cc1ccccc1Sc1ccccc1)N(C)C (stereo not drawn) | SLC6A2 (Homo sapiens, UniProt P23975) | ligand displacement in cells, radioligand | – | – | 215 nM |
| CC[C@H](C)[C@H](NC(=O)CN)C(=O)N[C@H](C(=O)N[C@@H](CC(N)=O)C(=O)N[C@H](C(=O)N[C@@H](CC(C)C)C(=O)N[C@@H](CCC(N)=O)C(=O)N[C@@H](CCCCN)C(=O)N[C@@H](Cc1ccc(O)cc1)C(=O)N[C@@H](Cc1ccc(O)cc1)C(=O)N[C@H]1CSSC[C@@H]2NC(=O)[C@H](CCCCN)NC(=O)[C@H](CCCNC(=N)N)NC(=O)CNC(=O)[C@H](CCCNC(=N)N)NC(=O)[C@H]([C@@H](C)O)NC(=O)[C@H](CO)NC(=O)[C@@H]3CSSC[C@H](NC(=O)[C@H](CCC(N)=O)NC(=O)CNC(=O)CNC(=O)[C@H](CCC(N)=O)NC(=O)[C@H](C(C)C)NC(=O)[C@H](CCCNC(=N)N)NC1=O)C(=O)N[C@@H](C)C(=O)N[C@@H](C(C)C)C(=O)N[C@@H](CC(C)C)C(=O)N[C@@H](CO)C(=O)N[C@@H](CSSC[C@@H](C(=O)N[C@@H](CCCNC(=N)N)C(=O)N[C@@H](CCCNC(=N)N)C(=O)N[C@@H](CCCCN)C(=O)N[C@@H](CCCCN)C(N)=O)NC2=O)C(=O)N[C@@H](CC(C)C)C(=O)N1CCC[C@H]1C(=O)N[C@@H](CCC(N)=O)C(=O)N[C@@H](CCC(=O)O)C(=O)N[C@@H](CCC(=O)O)C(=O)N[C@@H](CCC(N)=O)C(=O)N[C@@H]([C@@H](C)CC)C(=O)NCC(=O)N[C@@H](CCCCN)C(=O)N3)[C@@H](C)O)[C@@H](C)CC | MC1R | ligand displacement in cells | – | – | 137 nM |
| OB(O)c1cnn(-c2cc(Cl)ncn2)c1 | Beta-lactamase (ampC, Escherichia coli K-12, UniProt P00811) | enzyme activity, inhibitor | – | together with: CENTA | 10 nM |
| CNC(=O)C1CCN(c2ccccc2NC(=O)c2ccc(-c3cc(O)ccc3C)c(C)n2)CC1 | FGR (Homo sapiens, UniProt P09769) | cell-free assay, TR-FRET | – | – | 1.1 nM |
| CC(=O)N[C@@H](CCCNC(=N)N)C(=O)N[C@@H](Cc1ccc(O)cc1)C(=O)N[C@H]1CCCNC(=N)NC(=O)NCCCCNC(=O)[C@H](Cc2ccc(O)cc2)NC(=O)[C@H](CCCNC(=N)N)NC(=O)[C@H](CC(C)C)NC1=O | NPY5R (Homo sapiens, UniProt Q15761) | ligand displacement, radioligand | – | – | > 5000 nM |
| CC[C@H](C)[C@H](NC(=O)[C@@H](Cc1ccn2nccc2c1)NC(=O)[C@@H]1CCCN1C(=O)[C@H](CCCNC(=N)N)NC(=O)[C@@H](N)CCCNC(=N)N)C(=O)N[C@@H](CC(C)C)C(=O)O | NTSR2 (Homo sapiens, UniProt O95665) | ligand displacement, radioligand | – | cell membranes | 83 nM |
| CC[C@H](C)[C@H](NC(=O)[C@@H]1CSCC(=O)NCCC[C@H](NC(=O)[C@H](Cc2ccc(O)cc2)NC(=O)CNC(C)=O)C(=O)N[C@@H](CO)C(=O)N[C@@H](CCCNC(=N)N)C(=O)N[C@@H](CO)C(=O)N[C@@H](Cc2ccc(O)cc2)C(=O)N2CCC[C@H]2C(=O)N2CCC[C@H]2C(=O)N[C@@H](C(C)C)C(=O)N1)C(=O)N1CCC[C@H]1C(=O)N[C@@H](CC(=O)O)C(N)=O | Mannan-binding lectin serine protease 2 | enzyme activity, inhibitor | – | – | 60000 nM |
| CC(C)C[C@H](NC(=O)[C@H](CCCNC(=N)N)NC(=O)[C@H](Cc1c[nH]c2ccccc12)NC(=O)[C@H](Cc1ccccc1)NC(=O)[C@H](Cc1ccccc1)N(C)C(=O)COc1ccccc1)C(=O)N[C@@H](CCCNC(=N)N)C(=O)N[C@@H](CCCNC(=N)N)C(=O)N[C@H](C)C(=O)N[C@@H](CCCNC(=N)N)C(=O)N1CCC[C@H]1C(=O)N[C@@H](CCCCN)C(N)=O | Oprk1 | ligand displacement, radioligand | – | – | 13.3 nM |
| CCC(=O)c1ccc2c(c1)sc(=O)n2CCN1CCCC1 | Sigmar1 | binding, radioligand binding | rat liver membranes | together with: [3H](+)-pentazocine 5 nM | 116 ± 15 nM |
| N[C@@H]1C[C@H]1c1ccccc1 (racemic) | Drd2 (Rattus norvegicus, UniProt P61169) | – | – | – | 58700 ± 5910 nM |
| CC[C@H](C)[C@H](NC(=O)CN)C(=O)N[C@H](C(=O)N[C@@H](CC(N)=O)C(=O)N[C@H](C(=O)N[C@@H](CC(C)C)C(=O)N[C@@H](CCC(N)=O)C(=O)N[C@@H](CCC(N)=O)C(=O)N[C@@H](Cc1ccc(O)cc1)C(=O)N[C@@H](Cc1ccc(O)cc1)C(=O)N[C@H]1CSSC[C@@H]2NC(=O)[C@H](CCC(N)=O)NC(=O)[C@H](CCC(N)=O)NC(=O)CNC(=O)[C@H](CCC(N)=O)NC(=O)[C@H]([C@@H](C)O)NC(=O)[C@H](CO)NC(=O)[C@@H]3CSSC[C@H](NC(=O)[C@H](CCC(N)=O)NC(=O)CNC(=O)CNC(=O)[C@H](CCC(N)=O)NC(=O)[C@H](C(C)C)NC(=O)[C@H](CCC(N)=O)NC1=O)C(=O)N[C@@H](C)C(=O)N[C@@H](C(C)C)C(=O)N[C@@H](CC(C)C)C(=O)N[C@@H](CO)C(=O)N[C@@H](CSSC[C@@H](C(=O)N[C@@H](CCC(N)=O)C(=O)N[C@@H](CCC(N)=O)C(=O)N[C@@H](CCC(N)=O)C(=O)N[C@@H](CCC(N)=O)C(N)=O)NC2=O)C(=O)N[C@@H](CC(C)C)C(=O)N1CCC[C@H]1C(=O)N[C@@H](CCC(N)=O)C(=O)N[C@@H](CCC(=O)O)C(=O)N[C@@H](CCC(=O)O)C(=O)N[C@@H](CCC(N)=O)C(=O)N[C@@H]([C@@H](C)CC)C(=O)NCC(=O)N[C@@H](CCC(N)=O)C(=O)N3)[C@@H](C)O)[C@@H](C)CC | MC1R | – | HEK-293T transfected | 2 h, 37 °C, together with: Eu-NDP-MSH | > 5000 nM |
| CC[C@H](C)[C@H](NC(=O)[C@@H]1CSCC(=O)NCC[C@H](NC(=O)[C@H](Cc2ccc(O)cc2)NC(=O)CNC(C)=O)C(=O)N[C@@H](CO)C(=O)N[C@@H](CCCNC(=N)N)C(=O)N[C@@H](CO)C(=O)N[C@@H](Cc2ccc(O)cc2)C(=O)N2CCC[C@H]2C(=O)N2CCC[C@H]2C(=O)N[C@@H](C(C)C)C(=O)N1)C(=O)N1CCC[C@H]1C(=O)N[C@@H](CC(=O)O)C(N)=O | Mannan-binding lectin serine protease 2 | enzyme activity, inhibitor | – | – | 41000 nM |
| Cc1cc(O)cc(C)c1CC(N)C(=O)NC1CCNc2ccc(CN3CCc4ccccc4C3)cc21 (stereo not drawn) | OPRK1 (Homo sapiens, UniProt P41145) | ligand displacement, radioligand | – | cell membranes | 2.2 nM |
| CC(=O)N[C@@H](CCCNC(=N)N)C(=O)N[C@@H](Cc1ccc(O)cc1)C(=O)N[C@@H](CCCNC(=N)N)C(=O)N[C@@H](CC(C)C)C(=O)N[C@@H](CCCNC(=N)NC(=O)NCCCCN)C(=O)N[C@@H](Cc1ccc(O)cc1)C(N)=O | NPY1R | ligand displacement, radioligand | – | – | 1120 nM |
| CC(=O)N(C)[C@@H](Cc1ccccc1)C(=O)N[C@@H](Cc1ccccc1)C(=O)N[C@@H](Cc1c[nH]c2ccccc12)C(=O)N[C@@H](CCCNC(=N)N)C(=O)N[C@@H](CC(C)C)C(=O)N[C@@H](CCCNC(=N)N)C(=O)N[C@@H](CCCNC(=N)N)C(=O)N[C@H](C)C(=O)N[C@@H](CCCNC(=N)N)C(=O)N1CCC[C@H]1C(=O)N[C@@H](CCCCN)C(N)=O | Oprk1 | ligand displacement, radioligand | – | – | 13 nM |
| C[C@]12COc3ccc(OCc4ccccc4)cc3[C@H]1CCN2 | SIGMAR1 (Homo sapiens, UniProt Q99720) | cell-free assay, radioligand | – | – | 2.1 nM |
| COc1cc(/C=C/C(=O)CC(=O)/C=C/c2ccc(OC(=O)CCc3c[nH]c4ccccc34)c(OC)c2)ccc1OC(=O)CCc1c[nH]c2ccccc12 | ache (Electrophorus electricus, UniProt O42275) | enzyme activity, inhibitor | – | – | 3000 nM |
| CC(CCC(=O)NC(CCC(=O)Nc1cccnc1)C(=O)O)C1CCC2C3C(O)CC4CC(O)CCC4(C)C3CCC12C (stereo not drawn) | SLC10A2 | taurocholate uptake, inhibitor | ASBT-MDCK | 10 min, together with: taurocholate 2.5 µM | 1510 nM |
| CCC(=O)c1ccc2c(c1)sc(=O)n2CCCCCN1CCCCCC1 | Sigmar1 | binding, radioligand binding | rat liver membranes | together with: [3H](+)-pentazocine 5 nM | 12.2 ± 1.1 nM |
| CC[C@H](C)[C@H](NC(=O)[C@H](CS)NC(=O)[C@H](CCC(N)=O)NC(=O)[C@H](CC(C)C)NC(=O)[C@H](CCCCN)NC(=O)[C@H](CCCNC(=N)N)NC(=O)[C@H](C)NC(=O)[C@@H](NC(=O)[C@H](CCC(N)=O)NC(=O)[C@@H](NC(=O)[C@H](CCC(=O)O)NC(=O)[C@H](C)NC(=O)[C@H](CCC(N)=O)NC(=O)[C@@H](N)Cc1c[nH]cn1)C(C)C)[C@@H](C)CC)C(=O)N[C@@H](C)C(=O)N[C@@H](CC(=O)O)C(=O)N[C@@H](CCC(N)=O)C(=O)N[C@@H](Cc1ccccc1)C(=O)N[C@@H](Cc1c[nH]cn1)C(=O)N[C@@H](CCCNC(=N)N)C(=O)N[C@@H](CC(C)C)C(=O)N[C@@H](Cc1c[nH]cn1)C(=O)N[C@H](C(=O)N[C@@H](CCC(N)=O)C(=O)N[C@@H](CCC(N)=O)C(=O)O)C(C)C | BCL2 (Homo sapiens, UniProt P10415) | ligand displacement, FP | – | – | 18 nM |
| CCCCc1ccc2c(c1)sc(=O)n2CCCCN1CCCCCC1 | Sigmar1 | binding, radioligand binding | rat liver membranes | together with: [3H](+)-pentazocine 5 nM | 1.9 ± 0.2 nM |
| C[C@H](CCC(=O)NCC(=O)O)[C@H]1CC[C@H]2[C@@H]3C(=O)C[C@H]4C[C@H](O)CC[C@]4(C)[C@H]3CC[C@]12C | SLC10A2 | transporter uptake, inhibitor, radiometric | – | – | 20400 nM |
| CC(=O)N[C@@H](CCCNC(=N)N)C(=O)N[C@H](Cc1ccc(O)cc1)C(=O)N[C@@H](CCCNC(=N)NC(=O)NCCCCN)C(=O)N[C@@H](CC(C)C)C(=O)N[C@@H](CCCNC(=N)N)C(=O)N[C@@H](Cc1ccc(O)cc1)C(N)=O | NPY1R | ligand displacement, radioligand | – | – | > 5000 nM |
| CCOC(=O)[C@](CC)(CCCSCCOCCOCCNC(=O)c1ccc(-c2c3ccc(=N)c(S(=O)(=O)O)c-3oc3c(S(=O)(=O)O)c(N)ccc23)c(C(=O)O)c1)NC(=O)c1ccc(C2CC2)c(Cc2ccc(F)cc2)n1 | Cnr1 (Mus musculus, UniProt P47746) | ligand displacement, radioligand | – | cell membranes | > 10000 nM |

A few entries again:
| Structure (SMILES) | target | assay | system | setting | Ki |
| --- | --- | --- | --- | --- | --- |
| CC(=O)N(C)[C@@H](Cc1ccccc1)C(=O)N[C@@H](Cc1ccccc1)C(=O)N[C@@H](Cc1c[nH]c2ccccc12)C(=O)N[C@@H](CCCNC(=N)N)C(=O)N[C@@H](CC(C)C)C(=O)N[C@@H](CCCNC(=N)N)C(=O)N[C@@H](CCCNC(=N)N)C(=O)N[C@H](C)C(=O)N[C@@H](CCCNC(=N)N)C(=O)N1CCC[C@H]1C(=O)N[C@@H](CCCCN)C(N)=O | Oprk1 | ligand displacement, radioligand | – | – | 13 nM |
| CC[C@H](C)[C@H](NC(=O)[C@@H](Cc1ccn2nccc2c1)NC(=O)[C@@H]1CCCN1C(=O)[C@H](CCCNC(=N)N)NC(=O)[C@@H](N)CCCNC(=N)N)C(=O)N[C@@H](CC(C)C)C(=O)O | NTSR2 (Homo sapiens, UniProt O95665) | ligand displacement, radioligand | – | cell membranes | 83 nM |
